Results of several laboratories.
Lines come from different studies, so protocols differ. Numbers after ± are the reported error.
TDP1: Tyrosyl-DNA phosphodiesterase 1 (TDP1, Homo sapiens, UniProt Q9NUW8)
Chain of UniProt Q9NUW8 (whole entry, looked up): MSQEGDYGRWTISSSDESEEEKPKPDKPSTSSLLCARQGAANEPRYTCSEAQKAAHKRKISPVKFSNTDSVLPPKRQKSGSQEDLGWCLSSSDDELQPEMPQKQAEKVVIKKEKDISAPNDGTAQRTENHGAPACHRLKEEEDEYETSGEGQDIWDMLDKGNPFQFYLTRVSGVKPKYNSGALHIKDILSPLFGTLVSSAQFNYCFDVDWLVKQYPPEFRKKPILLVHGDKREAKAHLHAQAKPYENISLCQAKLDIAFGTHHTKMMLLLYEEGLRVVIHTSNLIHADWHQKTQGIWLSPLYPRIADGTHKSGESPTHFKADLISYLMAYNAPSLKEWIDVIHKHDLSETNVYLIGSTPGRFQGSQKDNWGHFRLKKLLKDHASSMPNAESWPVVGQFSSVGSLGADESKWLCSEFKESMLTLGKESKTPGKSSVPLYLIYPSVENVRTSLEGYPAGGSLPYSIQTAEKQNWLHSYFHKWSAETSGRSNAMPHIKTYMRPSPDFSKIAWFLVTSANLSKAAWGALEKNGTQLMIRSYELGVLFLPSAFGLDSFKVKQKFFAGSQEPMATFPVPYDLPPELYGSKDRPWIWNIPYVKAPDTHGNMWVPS

Cc1cn(CC(=O)N(CCNC(=O)CN(CCNC(=O)CN(CCNC(=O)CN(CCNC(=O)CN(CCNC(=O)CN(CCNC(=O)CN(CCNC(=O)CN(CCN)C(=O)Cn2cnc3c(=O)[nH]c(N)nc32)C(=O)Cn2cnc3c(N)ncnc32)C(=O)Cn2cc(C)c(=O)[nH]c2=O)C(=O)Cn2cnc3c(=O)[nH]c(N)nc32)C(=O)Cn2cc(C)c(=O)[nH]c2=O)C(=O)Cn2cnc3c(=O)[nH]c(N)nc32)C(=O)Cn2cnc3c(N)ncnc32)CC(=O)NCCN(CC(=O)NCCOCCOCC(N)=O)C(=O)Cn2cnc3c(N)ncnc32)c(=O)[nH]c1=O  ΔTm (mismatched RNA TC; duplex formation, UV melting; relative to: complementary RNA): -15.7 °C
C=CC(=O)N1[C@@H](c2ccc3c(c2)OCO3)c2[nH]c3ccccc3c2C[C@H]1C(=O)N1CCN(C)CC1  relative co-enrichment (human cyclin E1 wild type-3xFLAG:CDK2; co-IP with TMT proteomics, refers to: CDKN1A; concentration not given, P38936; relative to: wild type DMSO): 115%
c1ccc(-c2n[nH]cc2-c2ccnc3ccccc23)nc1  log2 fold change (PBS2 (Candida albicans); kinase binding, MIB/MS competition; Candida albicans lysate; 10 µM; relative to: DMSO): -0.19
Nc1oc2ccc(F)cc2c(=O)c1C=NOCc1ccc(-c2nc3cc(-c4ccccc4)ccn3c2Nc2ccc(C(=O)O)cc2)cc1 (mixture of isomers)  inhibition (TDP1; enzyme activity, inhibitor; 100 µM, unpurified compound): 61.9%
Nc1ncc(-c2cc(-c3cnn(CC(F)(F)F)c3)ncc2F)nc1C(=O)NC1CNCC(F)C1 (stereo not shown)  remaining binding (HPK1; KINOMEscan; 1 µM; relative to: DMSO control): 31%
C=CC(=O)Nc1cccc(Cn2ncc3cnc(Nc4cnn(CCOC)c4)nc32)c1  percent of control (PRKCD human; binding, KINOMEscan; 100 nM; lower = stronger binding): 100%
NCCOc1cc(NC(=O)c2cc(OCc3cn([C@H]4O[C@@H](CO)[C@H](O)[C@@H](O)[C@@H]4O)nn3)cc(C(=O)Nc3cc(OCCN)c4ccccc4n3)n2)nc2ccccc12  ΔTm (c-kit2 G-quadruplex DNA; FRET melting; 1 µM, pH 7.4, with: 60 mM potassium): 13.2 ± 0.3 K
O=C(O)c1ccc(Nc2c(-c3ccccc3)nc3ccc(CON=Cc4cccc(NC(=O)C(F)(F)F)c4)cn23)cc1  inhibition (TDP1; enzyme activity, inhibitor; 100 µM, unpurified compound): 39.9%
CCC(=O)N(C)c1ccc(Cl)c(Cl)c1  inhibition (Na+ channel site 2; radioligand binding; 10 µM): < 10%
C=CC(=O)N1CCc2ccc(-n3c(=O)ccc4cnc5ccc(-c6cnn(C)c6)cc5c43)cc21  remaining binding (FLT3 ITD, human; KINOMEscan; 1 µM; relative to: control): 92%

For quick reference, copied from above:
O=C(O)c1ccc(Nc2c(-c3ccccc3)nc3ccc(CON=Cc4cccc(NC(=O)C(F)(F)F)c4)cn23)cc1  inhibition (TDP1; enzyme activity, inhibitor; 100 µM, unpurified compound): 39.9%
